# Experimental data from different studies.
# “And” joins repeats or separate records; there may be more than shown. ± marks the error that the study gave.
# UniProt Q9P2K8, sequence (whole entry, looked up): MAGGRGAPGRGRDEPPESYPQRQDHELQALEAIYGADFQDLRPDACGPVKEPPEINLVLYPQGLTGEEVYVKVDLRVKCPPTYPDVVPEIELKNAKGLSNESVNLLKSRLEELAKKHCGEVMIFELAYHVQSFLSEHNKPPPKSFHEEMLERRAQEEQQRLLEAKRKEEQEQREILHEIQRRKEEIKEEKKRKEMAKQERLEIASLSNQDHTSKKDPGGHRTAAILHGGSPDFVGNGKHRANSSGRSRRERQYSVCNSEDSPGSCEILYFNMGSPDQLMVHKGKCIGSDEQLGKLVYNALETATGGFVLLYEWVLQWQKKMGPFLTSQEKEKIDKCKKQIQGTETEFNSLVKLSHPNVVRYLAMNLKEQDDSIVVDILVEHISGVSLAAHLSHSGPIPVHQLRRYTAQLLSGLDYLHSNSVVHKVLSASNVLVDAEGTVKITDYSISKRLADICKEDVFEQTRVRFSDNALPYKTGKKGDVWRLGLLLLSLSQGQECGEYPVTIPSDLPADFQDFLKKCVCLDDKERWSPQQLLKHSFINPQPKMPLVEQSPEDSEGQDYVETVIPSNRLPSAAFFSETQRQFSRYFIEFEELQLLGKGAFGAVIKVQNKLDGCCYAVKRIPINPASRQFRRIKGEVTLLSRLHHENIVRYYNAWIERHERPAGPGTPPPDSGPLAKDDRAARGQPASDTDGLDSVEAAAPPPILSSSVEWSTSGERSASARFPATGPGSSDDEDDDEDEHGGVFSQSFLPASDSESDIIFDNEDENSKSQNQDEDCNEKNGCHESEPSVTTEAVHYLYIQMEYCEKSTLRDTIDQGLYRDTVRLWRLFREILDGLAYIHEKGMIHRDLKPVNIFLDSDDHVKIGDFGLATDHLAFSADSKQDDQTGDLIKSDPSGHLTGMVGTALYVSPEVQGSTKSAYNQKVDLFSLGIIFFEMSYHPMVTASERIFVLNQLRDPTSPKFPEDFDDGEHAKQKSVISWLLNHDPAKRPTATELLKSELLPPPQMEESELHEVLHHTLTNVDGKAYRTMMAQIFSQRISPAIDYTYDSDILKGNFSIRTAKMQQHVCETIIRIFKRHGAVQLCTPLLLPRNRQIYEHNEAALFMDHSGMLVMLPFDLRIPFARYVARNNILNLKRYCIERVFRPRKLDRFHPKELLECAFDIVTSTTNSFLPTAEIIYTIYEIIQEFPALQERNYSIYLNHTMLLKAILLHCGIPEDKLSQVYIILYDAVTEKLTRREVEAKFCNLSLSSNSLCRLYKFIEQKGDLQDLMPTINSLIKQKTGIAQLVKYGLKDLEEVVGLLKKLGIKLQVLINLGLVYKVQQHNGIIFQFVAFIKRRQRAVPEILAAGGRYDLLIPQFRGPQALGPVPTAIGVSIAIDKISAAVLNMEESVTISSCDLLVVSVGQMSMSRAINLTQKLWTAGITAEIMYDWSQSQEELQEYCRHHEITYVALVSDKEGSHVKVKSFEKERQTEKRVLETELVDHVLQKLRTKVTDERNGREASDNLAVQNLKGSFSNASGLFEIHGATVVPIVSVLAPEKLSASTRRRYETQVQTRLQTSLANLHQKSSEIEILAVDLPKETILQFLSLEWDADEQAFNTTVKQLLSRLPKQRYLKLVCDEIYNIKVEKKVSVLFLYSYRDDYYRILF
# UniProt P20813, sequence (whole entry, looked up): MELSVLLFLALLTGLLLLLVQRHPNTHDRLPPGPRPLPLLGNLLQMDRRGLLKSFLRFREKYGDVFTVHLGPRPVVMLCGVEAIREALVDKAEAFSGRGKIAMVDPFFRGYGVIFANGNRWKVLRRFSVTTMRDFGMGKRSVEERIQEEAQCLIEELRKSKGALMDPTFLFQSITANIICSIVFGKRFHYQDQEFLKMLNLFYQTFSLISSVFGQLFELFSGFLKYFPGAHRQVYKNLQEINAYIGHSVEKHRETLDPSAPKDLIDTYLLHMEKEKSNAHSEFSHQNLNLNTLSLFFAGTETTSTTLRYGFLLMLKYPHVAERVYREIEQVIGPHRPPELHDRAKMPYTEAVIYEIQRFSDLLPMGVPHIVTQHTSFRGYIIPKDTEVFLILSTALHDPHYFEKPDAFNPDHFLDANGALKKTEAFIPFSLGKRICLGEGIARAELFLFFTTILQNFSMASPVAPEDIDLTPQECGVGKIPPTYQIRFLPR
# UniProt Q9HCP0, sequence (whole entry, looked up): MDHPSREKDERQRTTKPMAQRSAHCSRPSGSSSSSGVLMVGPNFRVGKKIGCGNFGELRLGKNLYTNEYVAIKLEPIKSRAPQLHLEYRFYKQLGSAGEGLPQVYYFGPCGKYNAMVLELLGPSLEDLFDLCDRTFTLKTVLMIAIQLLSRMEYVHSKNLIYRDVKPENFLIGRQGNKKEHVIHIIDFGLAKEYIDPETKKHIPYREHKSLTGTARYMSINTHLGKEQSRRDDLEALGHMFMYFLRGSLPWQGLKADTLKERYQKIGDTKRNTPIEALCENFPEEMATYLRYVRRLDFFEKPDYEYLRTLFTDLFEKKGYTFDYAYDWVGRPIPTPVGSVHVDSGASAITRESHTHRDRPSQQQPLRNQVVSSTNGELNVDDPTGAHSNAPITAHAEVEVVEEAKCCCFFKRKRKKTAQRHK
# UniProt Q9Y6L6, sequence (whole entry, looked up): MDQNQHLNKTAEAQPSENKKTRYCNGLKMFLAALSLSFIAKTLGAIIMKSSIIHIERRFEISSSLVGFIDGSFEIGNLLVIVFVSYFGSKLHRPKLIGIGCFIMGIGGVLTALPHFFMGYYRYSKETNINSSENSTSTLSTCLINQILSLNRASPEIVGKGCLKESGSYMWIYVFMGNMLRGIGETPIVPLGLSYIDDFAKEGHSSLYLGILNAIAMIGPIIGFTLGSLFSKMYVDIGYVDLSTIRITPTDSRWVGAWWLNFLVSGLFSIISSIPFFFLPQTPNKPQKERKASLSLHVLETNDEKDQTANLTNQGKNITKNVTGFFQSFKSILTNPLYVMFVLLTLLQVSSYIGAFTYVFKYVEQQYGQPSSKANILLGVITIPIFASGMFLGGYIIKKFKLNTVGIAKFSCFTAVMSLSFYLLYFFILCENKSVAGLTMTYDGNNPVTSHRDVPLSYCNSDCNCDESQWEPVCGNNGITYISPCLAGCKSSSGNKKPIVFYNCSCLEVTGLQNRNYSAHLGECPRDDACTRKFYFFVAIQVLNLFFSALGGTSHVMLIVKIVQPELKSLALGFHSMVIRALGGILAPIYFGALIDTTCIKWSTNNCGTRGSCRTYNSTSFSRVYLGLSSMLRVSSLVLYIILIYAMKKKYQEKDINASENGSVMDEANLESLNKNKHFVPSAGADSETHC
# UniProt Q9NYY3, sequence (whole entry, looked up): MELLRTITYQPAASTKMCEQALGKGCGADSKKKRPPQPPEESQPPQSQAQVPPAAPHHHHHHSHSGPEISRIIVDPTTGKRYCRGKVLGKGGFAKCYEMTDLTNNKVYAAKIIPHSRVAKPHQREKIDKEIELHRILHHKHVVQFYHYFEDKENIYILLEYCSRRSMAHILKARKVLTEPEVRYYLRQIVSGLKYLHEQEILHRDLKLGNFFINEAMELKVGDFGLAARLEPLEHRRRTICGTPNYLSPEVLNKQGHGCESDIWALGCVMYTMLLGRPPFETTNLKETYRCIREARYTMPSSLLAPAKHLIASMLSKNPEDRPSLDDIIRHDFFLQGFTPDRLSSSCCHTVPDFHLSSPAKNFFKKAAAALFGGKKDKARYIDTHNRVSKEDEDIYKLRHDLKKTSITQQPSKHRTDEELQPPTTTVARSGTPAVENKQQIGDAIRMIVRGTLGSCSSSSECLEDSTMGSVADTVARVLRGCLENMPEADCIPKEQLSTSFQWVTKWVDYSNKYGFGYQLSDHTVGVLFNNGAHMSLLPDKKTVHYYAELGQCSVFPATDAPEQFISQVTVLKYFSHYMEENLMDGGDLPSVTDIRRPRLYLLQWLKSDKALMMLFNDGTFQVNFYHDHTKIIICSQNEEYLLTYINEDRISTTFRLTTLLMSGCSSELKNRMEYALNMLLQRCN
# UniProt Q92630, sequence (whole entry, looked up): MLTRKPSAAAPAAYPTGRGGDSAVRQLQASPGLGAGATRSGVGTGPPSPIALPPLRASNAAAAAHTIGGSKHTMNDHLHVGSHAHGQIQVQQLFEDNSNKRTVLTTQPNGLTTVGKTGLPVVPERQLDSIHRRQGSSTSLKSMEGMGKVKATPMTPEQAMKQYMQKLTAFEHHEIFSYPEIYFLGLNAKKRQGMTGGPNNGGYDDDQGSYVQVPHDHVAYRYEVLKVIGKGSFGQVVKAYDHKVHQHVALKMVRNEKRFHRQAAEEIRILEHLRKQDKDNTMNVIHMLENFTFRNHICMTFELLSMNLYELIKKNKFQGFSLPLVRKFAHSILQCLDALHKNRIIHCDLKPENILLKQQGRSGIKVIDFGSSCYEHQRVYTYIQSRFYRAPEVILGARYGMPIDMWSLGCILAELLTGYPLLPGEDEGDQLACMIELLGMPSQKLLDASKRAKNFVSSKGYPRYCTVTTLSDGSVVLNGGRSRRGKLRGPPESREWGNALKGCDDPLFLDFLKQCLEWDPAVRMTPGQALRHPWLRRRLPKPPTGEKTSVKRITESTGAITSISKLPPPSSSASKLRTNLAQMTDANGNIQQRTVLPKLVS
Structure (SMILES),target or system,test,test system,conditions,scale,endpoint,result
CCOc1ccc(CN2CC[C@H]2C(=O)NC)cc1-c1cccc(C(=O)NC[C@@H]2COC(C)(C)O2)c1,Huh-7-ACE2,CellTiter-Glo,,"0.0488 µM, 48 h, unit not given",baseline: DMSO,viability,0.918 and 0.904 and 1.01
CC[C@H](C)[C@H](NC(=O)[C@H](CO)NC(=O)[C@H](Cc1ccc(O)cc1)NC(=O)[C@H](Cc1ccc(O)cc1)NC(=O)[C@H](CC(N)=O)NC(=O)CNC(=O)[C@H](CO)NC(=O)[C@H](Cc1ccc(O)cc1)NC(=O)[C@H](CO)NC(=O)[C@H](CO)NC(=O)[C@H](CC(N)=O)NC(=O)COCCOCCNC(=O)CN1CCN(CC(=O)O)CCN(CC(=O)O)CCN(CC(=O)O)CC1)C(=O)N[C@@H](CC(C)C)C(N)=O [copper-64 labelled],,dynamic PET,"mouse, tamoxifen-induced PDAC, blood","intravenous, 0.1 µg/mouse, 4.5 min",,tumour uptake,10.4 %ID/mL
CN(C)CCCNC(=O)[C@@H]1NC(=O)[C@@H]2Cc3ccc(cc3)Oc3cc4cc(c3O)-c3ccc5c(c[nH]c5c3)C[C@@H](NC(=O)C(NC(=O)CCCCCN)c3ccc(O)cc3)C(=O)N[C@H](c3ccc(O)cc3)C(=O)N[C@H]4C(=O)N[C@@H](C(=O)N2C)c2ccc(cc2)Oc2cc1ccc2O (some centres unmarked),human red blood cells,,PBS,"32 µg/mL, 1 h, pH 7.4, 37 °C",,hemolysis,0.95% and 0%
O=C1NC(=O)c2c1c1cc(F)c[n+]3c1c1c2c2cc(O)ccc2[n]1[Ru-4]312([N]=C=S)[S+]3CC[S+]1CC[S+]2CC3 (centres unmarked),"CSNK1G1 (Homo sapiens, UniProt Q9HCP0)",enzyme activity,,"100 nM, human enzyme, together with: 10 µM ATP",baseline: untreated,remaining activity,3%
O=c1n(CCNCCOS(=O)(=O)c2ccccc2)c(=O)n(S(=O)(=O)c2ccccc2)c(=O)n1S(=O)(=O)c1ccccc1,HUVEC,"cell growth or viability, MTT",,"25 µg/mL, 48 h",,viability,38.7%
CCc1nc2ccc(C(=O)NCCCn3ccnc3)cn2c1N(C)Cc1ccc(N(C)C)cc1,SH-SY5Y,sulforhodamine B,,"100 µM, 72 h",,cell density reduction,27%
COc1cc(C(=O)C(=O)N2CCCC[C@H]2C(=O)OC(CCCc2ccccc2)CCCc2cccnc2)cc(OC)c1OC (some centres unmarked),mouse CD8+ T cells,,,10 µM,,toxicity,toxic
CCCCN(C=O)c1c(CC)nc2ccc(C(=O)N(C)Cc3ccco3)cn12,SH-SY5Y,"cytotoxicity, sulforhodamine B",,72 h,,IC50,13.6 µM
CC[C@@H](N[C@@H](C)CC(N)=O)c1ccc(Cl)c(Oc2ccccc2)c1F,Huh-7 with HCV subgenomic replicon,Alamar Blue,,concentration not given,,cytotoxicity,no effect
CCCCCCCCCCCCCC(=O)N[C@H]1C(=O)N[C@@H](CN)C(=O)N[C@@H](CO)C(=O)N[C@@H](Cc2ccc(O)cc2)C(=O)O[C@H]1C,HEK293,MTT,,3.2 mg,,survival,98%
CC(C)(C)C(=O)OCOP(=O)(OCOC(=O)C(C)(C)C)C1CCCN(O)C1=O (centres unmarked),SNB-19,,,,,log LC50,> -4 log M
CS(C)(=O)=Nc1ccc(-c2ccc(-c3nc4cc(O[C@@H]5CO[C@H]6[C@@H]5OC[C@H]6O)[nH]c4cc3F)cc2)cc1,"DYRK2 (Homo sapiens, UniProt Q92630)","enzyme activity, inhibitor",,10 µM,,inhibition,-8%
CNC(=O)C[C@H](Cc1ccncc1)NC(=O)[C@@H](Cc1cccc(Br)c1)NC(=O)[C@@H](N)Cc1ccsc1,Huh-7-ACE2,CellTiter-Glo,,"0.195 µM, 48 h, unit not given",baseline: DMSO,viability,0.961 and 1.08 and 1.24
CC(=O)NCC(=O)N[C@@H](CCCNC(=N)N)C(=O)N[C@@H](CCCCN)C(=O)N[C@@H](CCCCN)C(=O)N[C@@H](CCCNC(=N)N)C(=O)N[C@@H](CCCNC(=N)N)C(=O)N[C@@H](CCC(N)=O)C(=O)N[C@@H](CCCNC(=N)N)C(=O)N[C@@H](CCCNC(=N)N)C(=O)N[C@@H](CCCNC(=N)N)C(=O)N1CCC[C@H]1C(=O)N[C@@H](CCC(N)=O)C(N)=O,HEK293T,subcellular fractionation LC-MS,cytoplasm,"20 µM, 2 h",,cytoplasmic peptide amount,0.0636 nmol and 0.0588 nmol and 0.0794 nmol
CC(C)[C@H]1NC(=O)C[C@H]2/C=C/CCSSC[C@@H](NC1=O)C(=O)N[C@H](Cc1cccc3ccccc13)C(=O)NCC(=O)O2,"PLK2 (Homo sapiens, UniProt Q9NYY3)","enzyme activity, inhibitor",,10 µM,,inhibition,0.6%
CNC(=O)CC1CN(C(=O)c2ccc(C(F)(F)F)cn2)CCN1C(=O)c1cccnn1 (centres unmarked),Huh-7-ACE2,CellTiter-Glo,,"0.0061 µM, 48 h, unit not given",baseline: DMSO,viability,1.07 and 0.995 and 1.09
CCCCCCc1cccc([C@H](O)C[C@H](CO)NC(=O)CCCCCCCCCCBr)c1,HeLa,,,"1 µM, lipidomics treatment",,living cells,95% and 96% and 90%
CCCCCCCCCCCC1CC(=O)N[C@@H](CO)C(=O)N[C@H](CO)C(=O)N[C@H](C)C(=O)N(C)[C@@H](C(C)C)C(=O)N[C@H](CO)C(=O)N[C@H](CCCCN)C(=O)N[C@H](CO)C(=O)N[C@@H](CCCCN)C(=O)O1 (some centres unmarked),HEK293,MTT,,32 mg,,survival,92.9%
O=C1NC2(CC2)COc2ncc(F)cc2[C@H]2COCCN2c2ccn3ncc1c3n2,,,"Sprague-Dawley rat, male, serum","oral, 2.5 mg/kg/day, end of recovery, 4-week subacute toxicity",,serum triglycerides,0.54 ± 0.21 mmol/L
CC(=O)N[C@H]1[C@H](Oc2ccc(C[C@H](NC(=O)CN)C(=O)N[C@@H](CCC(=O)O)C(=O)N[C@H](C(=O)N[C@@H](Cc3c[nH]cn3)C(=O)N[C@@H](Cc3c[nH]cn3)C(=O)N[C@@H](CCC(N)=O)C(=O)N[C@@H](CCCCN)C(=O)N[C@@H](CC(C)C)C(=O)N[C@H](C(=O)N[C@@H](Cc3ccccc3)C(=O)N[C@@H](Cc3ccccc3)C(=O)N[C@@H](C)C(N)=O)C(C)C)C(C)C)cc2)O[C@H](CO)[C@H](O)[C@@H]1O,SH-SY5Y,CCK-8,,"6.25 µM, 24 h",baseline: untreated,viability,96.5% and 90.7% and 100%
CCCCCCCCCCCC1CC(=O)N[C@H]([C@H](C)O)C(=O)N[C@@H](CN)C(=O)N[C@@H](CO)C(=O)N[C@@H](Cc2ccc(O)cc2)C(=O)O1 (some centres unmarked),HEK293,MTT,,3.2 mg,,survival,98.2%
COc1ccccc1-c1n[nH]c2nc(NC3CCN(C(=O)Cc4ccc(F)cc4F)CC3)ncc12,,"bead binding, competition bead pull-down, measured: LINJ.29.2310",Leishmania donovani extract,10 µM,baseline: vehicle,relative abundance,0.96
CNC(=O)C[C@H](Cc1ccc(F)cc1)NC(=O)[C@@H](Cc1ccc(Cl)cc1Cl)NC(=O)[C@H](N)Cc1ccccc1C#N,Huh-7-ACE2,CellTiter-Glo,,"0.0488 µM, 48 h, unit not given",baseline: DMSO,viability,0.912 and 0.97 and 0.896
Cc1nc2cccc(OCC(C)(C)C(=O)NC(C)C)c2c(N)c1C(=O)[O-].[Na+],Salmonella typhimurium,,TA1535,"0.13 mg per plate, without S9, plate incorporation",,revertant colonies per plate,16 ± 2
CNC(=O)CC[C@H](Cc1ccccc1)NC(=O)[C@@H](Cc1ccc(Cl)cc1Cl)NC(=O)[C@H](N)Cc1ccccc1[N+](=O)[O-],Huh-7-ACE2,CellTiter-Glo,,"6.25 µM, 48 h, unit not given",baseline: DMSO,viability,0.91 and 0.984 and 1.04
CCCCNC(=O)c1ccc2nc(CC)c(N(C)Cc3ccc(OC)cc3)n2c1,SH-SY5Y,sulforhodamine B,,"100 µM, 72 h",,cell density reduction,49%
COc1ccccc1-c1n[nH]c2nc(N[C@H]3CC[C@H](NS(=O)(=O)CC(C)C)CC3)ncc12,,"bead binding, competition bead pull-down, measured: LINJ.10.0330",Leishmania donovani extract,10 µM,baseline: vehicle,relative abundance,0.9
CN(C)[C@H]1C[C@@]23CC[C@@]4(O2)C(=CC[C@]2(C)[C@@H](c5ccc6ccncc6c5)CC[C@H]24)C=C3[C@@H](O)[C@@H]1O,"EIF2AK4 (Homo sapiens, UniProt Q9P2K8)","ATP probe labelling, inhibitor, KiNativ profiling",,0.1 µM,,inhibition,6.9%
CC1CCC(C(C)(C)C(=O)Nc2ccc(Oc3ccccc3)cc2)CC1 (centres unmarked),HEK293T,cytotoxicity,,3 days,,IC50,15.4 µM
CNC(=O)C[C@H](Cc1ccncc1)NC(=O)[C@@H](Cc1cccc(Br)c1)NC(=O)[C@@H](N)Cc1cccc(F)c1,Huh-7-ACE2,CellTiter-Glo,,"0.0061 µM, 48 h, unit not given",baseline: DMSO,viability,1.04 and 0.948 and 1.06
Cc1cnccc1-n1[se]c2ccccc2c1=O,HPAEpiC,"cell growth or viability, MTT",,24 h,,CC50,> 100 µM
Cc1cc(-c2ccc3ccccc3c2)nnc1NCCN1CCN(C)CC1,"Cytochrome P450 2B6 (CYP2B6, Homo sapiens, UniProt P20813)",substrate,recombinant enzyme,"100 nM, 1 h",,remaining compound,90%
O=C(N[C@H](Cc1ccc(-c2ccccc2)cc1)C(=O)NCCNc1ccc([N+](=O)[O-])c2nonc12)c1ccc(-c2ccc(OP(=O)(O)O)cc2)cc1,PC-3,fluorescence imaging,,50 µM,,time to cellular uptake,≤ 5 min
CN1CCN(c2ccc(Nc3cc4[nH]c(-c5cccc(F)c5)cc4cn3)cc2)CC1,SH-SY5Y,sulforhodamine B,,concentration not given,,cytotoxicity,toxic
CNC(=S)N/N=C/c1ccc(OCc2ccccc2)cc1,IMR-32,MTT,,"300 µg/mL, 24 h",baseline: untreated control,viability,58.8%
C#Cc1ccc(N2CCOCC2)c(/C=N/NC(=O)CCl)c1,THLE-2,"cell growth or viability, ATP luminescence",,24 h,,IC50,72.9 µM
NC(=S)N/N=C/c1ccc(OCc2cccc(F)c2)cc1,IMR-32,MTT,,"100 µg/mL, 24 h",baseline: untreated control,viability,76.3%
CC(=O)NCCCC[C@@H]1NC(=O)[C@H](Cc2c[nH]c3c(C)cccc23)NC(=O)[C@H]([C@@H](C)O)NC(=O)[C@H](CC(N)=O)NC(=O)[C@@H](NC(C)=O)C(C)(C)SSC(C)(C)[C@@H](C(=O)N[C@@H](Cc2ccc(OCCN)cc2)C(=O)N[C@@H](Cc2ccc3ccccc3c2)C(=O)NC2(C(=O)N[C@@H](CCC(=O)O)C(=O)N[C@@H](CC(N)=O)C(=O)N[C@@H](Cc3cccnc3)C(=O)N(C)CC(N)=O)CCOCC2)NC1=O,"SLCO1B1 (Homo sapiens, UniProt Q9Y6L6)",substrate,HEK293 overexpressing transporter,"5 µM, 30 min, together with: 25 µM rifampicin",,uptake rate,0.0686 ± 0.0116 pmol/mg/min

# Some of these lines once more:
Structure (SMILES),target or system,test,test system,conditions,scale,endpoint,result
COc1ccccc1-c1n[nH]c2nc(N[C@H]3CC[C@H](NS(=O)(=O)CC(C)C)CC3)ncc12,,"bead binding, competition bead pull-down, measured: LINJ.10.0330",Leishmania donovani extract,10 µM,baseline: vehicle,relative abundance,0.9
CC(C)[C@H]1NC(=O)C[C@H]2/C=C/CCSSC[C@@H](NC1=O)C(=O)N[C@H](Cc1cccc3ccccc13)C(=O)NCC(=O)O2,"PLK2 (Homo sapiens, UniProt Q9NYY3)","enzyme activity, inhibitor",,10 µM,,inhibition,0.6%
CCCCCCCCCCCC1CC(=O)N[C@H]([C@H](C)O)C(=O)N[C@@H](CN)C(=O)N[C@@H](CO)C(=O)N[C@@H](Cc2ccc(O)cc2)C(=O)O1 (some centres unmarked),HEK293,MTT,,3.2 mg,,survival,98.2%
